Assay results collected from several papers.
“And” joins repeats or separate records; there may be more than shown. Numbers after ± are the reported error.

SMILES	tested on	test	setting	scale	measurement	value
Cc1cc(C(=O)NC(C)(C)COc2cccc3c2C(N)=NS(=O)(=O)N3)cc(C)n1	human peripheral blood lymphocytes	CBPI, preliminary test	200 µg/mL, 24 h	baseline: vehicle control	cytotoxicity	-1%
CC[C@]1(O)C[C@H]2CN(CCc3c([nH]c4ccccc34)[C@@](C(=O)OC)(c3cc4c(cc3OC)N(C=O)[C@H]3[C@@](O)(C(=O)OC)[C@H](OC(C)=O)[C@]5(CC)C=CCN6CC[C@]43[C@@H]65)C2)C1	CHP-212 resistant subline R2 (heterozygous USP7 V517F)	cell viability	10000 nM	–	viability	15.8% and 20.7% and 15.7%
Cc1ccc(S(=O)(=O)Nc2nc(N)c(-c3nc4ccccc4s3)c(-c3ccccc3)n2)cc1	HEp-2	cytotoxicity	72 h	–	maximum non-toxic concentration	90 µg/mL
c1csc(CNc2cc[nH]n2)c1	human peripheral blood lymphocytes	–	2160 µg/mL, 4 h	–	numerical aberration cells	0%
CO[C@@H]1[C@H](OC(=O)/C=C/C=C/C=C/C=C/C(=O)O)CC[C@]2(CO2)[C@H]1[C@@]1(C)O[C@@H]1CC=C(C)C	LMH chicken hepatoma cells	–	–	–	CC50	~200 µM
COc1cccc2c1C(=O)c1c(O)c3c(c(O)c1C2=O)C[C@@](O)(C(=O)CO)C[C@@H]3O[C@H]1C[C@H](N)[C@H](O)[C@H](C)O1	THLE-2 transduced with Ad-CYP2C9	metabolism-induced cytotoxicity	48 h, 3D Matrigel spots	–	IC50	4.1 ± 0.5 µM
CSc1c(-c2nc3ccccc3s2)c(N)n(NS(=O)(=O)c2ccccc2)c(=O)c1C#N	HEp-2	–	72 h	–	maximum non-toxic concentration	100 µg/mL
N#C[C@@]1(c2ccc3c(N)ncnn23)O[C@H](CO)[C@@H](O)[C@H]1O	primary human hepatocytes	spare respiratory capacity, Seahorse OCR	4 h	–	CC50	> 100 µM
CSc1nc(NS(=O)(=O)c2ccc(C)cc2)nc(N)c1-c1nc2ccccc2s1	HEp-2	cytotoxicity	72 h	–	maximum non-toxic concentration	100 µg/mL
CCCCc1nc2c(N)nc3ccccc3c2n1Cc1ccc(CN)cc1	Ramos	–	up to 30 µM	–	cytotoxicity	not toxic
CC(=O)CNc1nc(NS(=O)(=O)c2ccccc2)ncc1-c1nc2ccccc2s1	HEp-2	cytotoxicity	72 h	–	maximum non-toxic concentration	80 µg/mL
Clc1ccc(COc2ccccc2CNCc2ccccc2)cc1	A549	–	–	–	cytotoxic concentration	> 12.5 µM
CC[C@]1(O)C[C@@H]2CN(CCc3c([nH]c4ccccc34)[C@@](C(=O)OC)(c3cc4c(cc3OC)N(C)[C@H]3[C@@](O)(C(=O)OC)[C@H](OC(C)=O)[C@]5(CC)C=CCN6CC[C@]43[C@@H]65)C2)C1	human peripheral blood lymphocytes	CBPI, micronucleus test	5 ng/mL, 24 h, without S9	baseline: vehicle	cytotoxicity	5%
CCSC(SCC)=C(C#N)c1nc2ccccc2s1	HEp-2	–	72 h	–	maximum non-toxic concentration	110 µg/mL
COc1cc(C2=CCCc3c2ccc(OC)c3OCc2ccc([N+](=O)[O-])o2)cc(OC)c1OC	A549	–	4 h anoxic	baseline: oxic IC50 over anoxic IC50	hypoxic cytotoxicity ratio	0.7
Fc1ccc(COc2ccccc2CNCc2ccccc2)cc1	HEK293	–	–	–	cytotoxic concentration	> 12.5 µM
C[C@]12CC[C@@H]3c4ccc(O)cc4C[C@@H](CCCCCCCCC[S+]([O-])CCCC(F)(F)C(F)(F)F)[C@H]3[C@@H]1CC[C@@H]2O (stereo partly drawn)	T47D	CCK-8	100 nM	baseline: untreated	viability	76.5% and 72.8% and 71.2%
Nc1n[n+]([O-])c2ccccc2[n+]1[O-]	A549	–	4 h anoxic	baseline: oxic IC50 over anoxic IC50	hypoxic cytotoxicity ratio	> 31.6
Nc1nc(NS(=O)(=O)c2ccccc2)nc(-c2ccc(Cl)cc2)c1-c1nc2ccccc2s1	HEp-2	cytotoxicity	72 h	–	maximum non-toxic concentration	100 µg/mL
C[C@@H](c1ccc2nccn2c1)n1nnc2ncc(-c3cnn(C)c3)nc21	primary human hepatocytes	item: CYP3A4	concentration not given, 48 h	baseline: rifampicin	mRNA induction	7.7 to 16%

SMILES	tested on	test	setting	scale	measurement	value
COc1ccc2c(Cc3ccccc3F)c3n(c(=O)c2c1OC)CCc1cc2c(cc1-3)OCO2	NIH3T3	cytotoxicity, CCK-8	24 h	–	IC50	7.16 µM
O=CC[C@H](O)[C@H](O)COP(=O)(O)O	–	binding, equilibrium dialysis LC-MS	5 µM, thermostabilized A2AR-BRIL construct	baseline: no-protein control, direction not given	z-scored log2 fold change	0.202
COc1ccc2c(c1NC(=O)OCc1cnc([N+](=O)[O-])n1C)CCC=C2c1cc(OC)c(OC)c(OC)c1	A549	–	4 h anoxic	baseline: oxic IC50 over anoxic IC50	hypoxic cytotoxicity ratio	2.2
O=C1C(O)=C([C@H]2CC[C@H](c3ccc(Cl)cc3)CC2)C(=O)c2ccccc21	differentiated THP-1	–	72 h	baseline: THP-1 CC50 over EC50	selectivity index	91
Cc1ccc(-c2nc(NS(=O)(=O)c3ccccc3)nc(N)c2-c2nc3ccccc3s2)cc1	HEp-2	cytotoxicity	72 h	–	maximum non-toxic concentration	90 µg/mL
CN(C)[C@@H]1C(O)=C(C(N)=O)C(=O)[C@@]2(O)C(O)=C3C(=O)c4c(O)ccc(Cl)c4[C@@](C)(O)[C@H]3C[C@@H]12	LMH chicken hepatoma cells	–	–	–	CC50	50.4 µM
CCCC(CCC)NC(=O)c1ccc2c(c1)OCO2	CHO-WBL	–	0.56 mg/mL, 3 h, with rat liver S9	–	relative mitotic index	109%
CCc1nn(CCCN2CCN(c3cccc(Cl)c3)CC2)c(=O)n1CCOc1ccccc1	HepaRG	cytotoxicity, CellTiter-Glo	24 h	–	EC50	55.3 µM
CC(=O)OC[C@H]1O[C@@H]([S-])[C@H](OC(C)=O)[C@@H](OC(C)=O)[C@@H]1OC(C)=O.CCP(CC)CC.[Au+]	differentiated THP-1	–	72 h	baseline: THP-1 CC50 over EC50	selectivity index	1
Cc1ccc(S(=O)(=O)Nn2c(N)c(C#N)cc(C#N)c2=O)cc1	HEp-2	–	72 h	–	maximum non-toxic concentration	90 µg/mL
Cc1cc(C)c(CNC(=O)c2cc(Cl)c3c(c2C)O[C@@](C)([C@H]2CC[C@H](N(C)C)CC2)O3)c(=O)[nH]1	Caco-2	–	100 µM	–	efflux ratio	18.3
CO[C@@]12[C@H](COC(N)=O)C3=C(C(=O)C(C)=C(N)C3=O)N1C[C@@H]1N[C@@H]12	human peripheral blood lymphocytes	–	0.125 µg/mL, 24 h, without S9	–	cytostasis	23%
Nc1nc(NS(=O)(=O)c2ccccc2)ncc1-c1nc2ccccc2s1	HEp-2	cytotoxicity	72 h	–	maximum non-toxic concentration	100 µg/mL
[NH2][Pt]([NH2])([Cl])[Cl]	HK-2	CCK-8	40 µM, 24 h	baseline: untreated	viability decline	~45%
CCSc1c(-c2nc3ccccc3s2)c(N)n(NS(=O)(=O)c2ccccc2)c(=O)c1C#N	HEp-2	–	72 h	–	maximum non-toxic concentration	120 µg/mL
NC(=O)c1nnn([C@@H]2C(F)=C(CO)[C@@H](O)[C@H]2O)c1N	BHK-D2-Rluc	MTT	48 (unit not given)	–	CC50	> 100 µM
Cc1ccc(S(=O)(=O)Nc2nc(N)c(-c3nc4ccccc4s3)c(-c3ccc(Cl)cc3)n2)cc1	HEp-2	cytotoxicity	72 h	–	maximum non-toxic concentration	100 µg/mL
CN(CC(=O)O)C(=N)N	–	binding, equilibrium dialysis LC-MS	5 µM, thermostabilized A2AR-BRIL construct	baseline: no-protein control, direction not given	z-scored log2 fold change	0.131
Cc1ncc([N+](=O)[O-])n1CCO	LMH chicken hepatoma cells	–	–	–	CC50	~200 µM
